Published values gathered from unrelated publications.
Parts stem from different laboratories: compare values within a part only. Changes are numbered by the printed parent chain.

Set 1
Target: TAR DNA-binding protein 43, full length, His tag (TARDBP, Homo sapiens, UniProt Q13148, residues 1-414)
Technique: RNA Bind-n-Seq
Molecule type: RNA
Medium: in vitro
Tested at: 20 nM
Setting: 6-mer, flanks averaged, single round
With: 150 mM LiCl
Relative to: input library
Reading: higher = stronger binding
Oligonucleotide	6-mer enrichment (R)
AGCCGG	0.915
AGAUGU	1.03
UCCUCC	0.969
GGGUGU	1.71
AAAGGG	1.02
CAUUAG	0.877
CUACUC	0.852
CCAUUG	0.951

Set 2
Target: FOSB, bZIP domain (human)
Technique: DHFR protein complementation
Medium: yeast
Setting: single substitutions, most at no-binding floor
Relative to: wild-type JUN-FOS pair
Reading: higher = stronger binding
Starting sequence: JUN, bZIP domain (human); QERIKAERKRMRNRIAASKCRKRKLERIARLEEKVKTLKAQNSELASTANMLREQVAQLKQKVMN; partner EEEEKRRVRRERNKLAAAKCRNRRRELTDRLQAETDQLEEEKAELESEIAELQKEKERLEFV
Variant	binding fitness
A29E	-0.226 natural log
A29W	-0.293 natural log
A49W	-0.642 natural log
M51D	-0.0764 natural log
T48Q	-0.0183 natural log
Q41R	-0.0808 natural log
S43G	-0.107 natural log
L38R	-1.16 natural log

Set 3
Target: Histone acetyltransferase KAT6A, both winged helices, GST fusion (KAT6A, Homo sapiens, UniProt Q92794, residues 1-181)
Technique: protein binding microarray
Molecule type: double-stranded DNA, one strand shown
Medium: in vitro
Tested at: not given
Setting: 8-mer, flanks averaged, mean of 2 arrays, mostly near background
Relative to: not given
Reading: higher = stronger binding
Target sequence (chain): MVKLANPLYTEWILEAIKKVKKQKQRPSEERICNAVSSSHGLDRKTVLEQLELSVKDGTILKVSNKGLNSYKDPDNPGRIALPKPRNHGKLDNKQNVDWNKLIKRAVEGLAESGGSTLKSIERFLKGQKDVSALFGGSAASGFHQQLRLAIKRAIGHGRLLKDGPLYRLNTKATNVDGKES
Oligonucleotide	E-score
CCGGGGCC	0.0863
GTAAATTA	-0.0193
AGTCAGAG	0.00825
AAGGAATT	-0.124
AGTTTGGA	-0.133
ACCAGTAG	-0.134
CGTAGGAA	-0.0117
GAGCATAA	0.107

Further values, each from its own experiment
Molecule	target	effect on	molecule type	tested at	endpoint	value
SYCNGVREL	HLA class I histocompatibility antigen, C alpha chain, allele C*04:01 (Homo sapiens, UniProt P10321)	peptide-MHC binding	peptide	concentration not given	binding	inactive
